Published values collected from several papers.
Lines come from different studies, so protocols differ. ± gives the spread as reported.

N=C(N)NCCC[C@@H]1NC(=O)[C@H](CC(=O)NC23CNCCNCC(N)(CNCCNC2)CNCCNC3)NC(=O)[C@@H](Cc2ccccc2)NC(=O)[C@H](CC(=O)O)NC(=O)CNC1=O [copper-64 labelled] — tissue uptake (Nu/Nu mouse, male, tumour-bearing, blood; intravenous, 10 µCi, 24 h): 0.08 ± 0.01 %ID/g
N=C(N)NCCC[C@@H]1NC(=O)[C@H](CCCCNC(=O)CCOCCOCCOCCOCCNC(=O)CC[C@H](NC(=O)CCOCCOCCOCCOCCNC(=O)CC[C@H](NC(=O)CN2CCN(CC(=O)O)CCN(CC(=O)O)CCN(CC(=O)O)CC2)C(=O)NCCOCCOCCOCCOCCC(=O)N[C@@H](CCC(=O)NCCOCCOCCOCCOCCC(=O)NCCCC[C@@H]2NC(=O)[C@@H](Cc3ccccc3)NC(=O)[C@H](CC(=O)O)NC(=O)CNC(=O)[C@H](CCCNC(=N)N)NC2=O)C(=O)NCCOCCOCCOCCOCCC(=O)NCCCC[C@@H]2NC(=O)[C@@H](Cc3ccccc3)NC(=O)[C@H](CC(=O)O)NC(=O)CNC(=O)[C@H](CCCNC(=N)N)NC2=O)C(=O)NCCOCCOCCOCCOCCC(=O)NCCCC[C@@H]2NC(=O)[C@@H](Cc3ccccc3)NC(=O)[C@H](CC(=O)O)NC(=O)CNC(=O)[C@H](CCCNC(=N)N)NC2=O)NC(=O)[C@@H](Cc2ccccc2)NC(=O)[C@H](CC(=O)O)NC(=O)CNC1=O [indium-111 labelled] — tissue uptake (athymic nude mice, female, U-87 MG glioma xenograft, U-87 MG tumour; intravenous, 3 µCi, 72 h): 3.04 ± 0.39 %ID/g
CSCC[C@H](NC(=O)[C@H](CC(C)C)NC(=O)[C@H](Cc1c[nH]cn1)NC(=O)CNC(=O)[C@@H](NC(=O)[C@H](C)NC(=O)[C@H](Cc1c[nH]c2ccccc12)NC(=O)[C@H](CCC(N)=O)NC(=O)CCCCCNC(=O)CNC(=O)CNC(=O)CNC(=O)CSC(C)=O)C(C)C)C(N)=O [technetium-99m labelled] — tissue uptake (nude mouse, PC-3 xenograft, heart; 90 min): 0.1 ± 0.01 %ID/g
CCCC[C@H](NC(=O)CCCCCCCNC(=O)c1ccc(NN)nc1)C(=O)N[C@H]1CC(=O)NCCCC[C@@H](C(N)=O)NC(=O)[C@H](Cc2c[nH]c3ccccc23)NC(=O)[C@H](CCCNC(=N)N)NC(=O)[C@@H](Cc2ccccc2)NC(=O)[C@H](Cc2c[nH]cn2)NC1=O [technetium-99m labelled] — tissue uptake (C57 mouse, B16/F1 melanoma, liver; 2 h, together with: L-lysine 12 mg co-injected): 1.22 ± 0.15 %ID/g
CCCC[C@H](NC(=O)CNC(=O)CNC(=O)c1ccc(NN)nc1)C(=O)N[C@H]1CC(=O)NCCCC[C@@H](C(N)=O)NC(=O)[C@H](Cc2c[nH]c3ccccc23)NC(=O)[C@H](CCCNC(=N)N)NC(=O)[C@@H](Cc2ccccc2)NC(=O)[C@H](Cc2c[nH]cn2)NC1=O [technetium-99m labelled] — tissue uptake (C57 mouse, B16/F1 melanoma-bearing, spleen; intravenous, 0.5 h): 0.99 ± 0.1 %ID/g
N=C(N)NCCC[C@@H]1NC(=O)[C@H](CCCCNC(=O)CCOCCOCCOCCOCCNC(=O)CN2CCN(CC(=O)O)CCN(CC(=O)O)CCN(CC(=O)O)CC2)NC(=O)[C@@H](Cc2ccccc2)NC(=O)[C@H](CC(=O)O)NC(=O)CNC1=O [indium-111 labelled] — tissue uptake (female athymic nude mice, kidney; intravenous, 3 µCi, 4 h, U-87 MG glioma xenograft): 2.8 ± 0.29 %ID/g
CSCC[C@H](NC(=O)[C@H](CC(C)C)NC(=O)[C@H](Cc1c[nH]cn1)NC(=O)CNC(=O)[C@@H](NC(=O)[C@H](C)NC(=O)[C@H](Cc1c[nH]c2ccccc12)NC(=O)[C@H](CCC(N)=O)NC(=O)CCCCNC(=O)CSCCSCCP(CO)CO)C(C)C)C(N)=O [technetium-99m labelled] — tissue uptake (female CF-1 mouse, whole blood; intravenous, 1 h, blood volume as 6.5% body weight): 1.9 ± 2.5 %ID
C[C@@H](O)[C@H](NC(=O)[C@@H]1CSSC[C@H](NC(=O)[C@@H](Cc2ccccc2)NC(=O)CN2CCCN3CCN(CCCN(CP(=O)(O)O)CC3)CC2)C(=O)N[C@@H](Cc2ccc(O)cc2)C(=O)N[C@H](Cc2c[nH]c3ccccc23)C(=O)N[C@@H](CCCCN)C(=O)N[C@@H]([C@@H](C)O)C(=O)N1)C(=O)O [copper-64 labelled] — tissue uptake (male Lewis rat, pancreas; 0.74 MBq, 1 h): 10.2 ± 2.7 %ID/g
N=C(N)NCCC[C@@H]1NC(=O)[C@H](CCCCNC(=O)CC[C@H](NC(=O)CCOCCOCCOCCOCCNC(=O)CC[C@H](NC(=O)CN2CCN(CC(=O)O)CCN(CC(=O)O)CCN(CC(=O)O)CC2)C(=O)NCCOCCOCCOCCOCCC(=O)N[C@@H](CCC(=O)NCCCC[C@@H]2NC(=O)[C@@H](Cc3ccccc3)NC(=O)[C@H](CC(=O)O)NC(=O)CNC(=O)[C@H](CCCNC(=N)N)NC2=O)C(=O)NCCCC[C@@H]2NC(=O)[C@@H](Cc3ccccc3)NC(=O)[C@H](CC(=O)O)NC(=O)CNC(=O)[C@H](CCCNC(=N)N)NC2=O)C(=O)NCCCC[C@@H]2NC(=O)[C@@H](Cc3ccccc3)NC(=O)[C@H](CC(=O)O)NC(=O)CNC(=O)[C@H](CCCNC(=N)N)NC2=O)NC(=O)[C@@H](Cc2ccccc2)NC(=O)[C@H](CC(=O)O)NC(=O)CNC1=O [indium-111 labelled] — tissue uptake (athymic nude mice, female, U-87 MG glioma xenograft, spleen; intravenous, 3 µCi, 24 h): 1.22 ± 0.44 %ID/g

Excerpt of the above:
CCCC[C@H](NC(=O)CCCCCCCNC(=O)c1ccc(NN)nc1)C(=O)N[C@H]1CC(=O)NCCCC[C@@H](C(N)=O)NC(=O)[C@H](Cc2c[nH]c3ccccc23)NC(=O)[C@H](CCCNC(=N)N)NC(=O)[C@@H](Cc2ccccc2)NC(=O)[C@H](Cc2c[nH]cn2)NC1=O [technetium-99m labelled] — tissue uptake (C57 mouse, B16/F1 melanoma, liver; 2 h, together with: L-lysine 12 mg co-injected): 1.22 ± 0.15 %ID/g
